Results gathered from unrelated publications.
Every numbered part comes from another study and shows a few of its results, in no order.

Series 1
Target: Calcium/calmodulin-dependent protein kinase type II subunit alpha (CAMK2A, Homo sapiens, UniProt Q9UQM7)
Observed: enzyme activity
Mode: inhibitor
Tested at: 10 µM
Endpoint: inhibition
NCCOP(=O)(O)O: 11%
Nc1cc(F)ccc1NC(=O)c1ccc(CNC(=O)/C=C/c2cccnc2)cc1: -4%
COc1ccc(O)c(C(=O)O)c1: -1%
CC(CC(=O)C[C@@H](C)[C@H]1CC(=O)[C@@]2(C)C3=C(C(=O)[C@@H](O)[C@]12C)[C@@]1(C)CC[C@H](O)C(C)(C)[C@@H]1C[C@@H]3O)C(=O)O (stereo partly drawn): 5%
OCC(O)CN1CCN(c2ccccc2)CC1 (stereo not drawn): 1%
CCC/C=C/C=O: 8%
C[C@H](CC[C@@H](O)C(C)(C)O)[C@H]1CC[C@@]2(C)[C@@H]3CC=C4[C@@H](CC[C@H](O[C@@H]5O[C@H](CO[C@@H]6O[C@H](CO)[C@@H](O)[C@H](O)[C@H]6O)[C@@H](O)[C@H](O)[C@H]5O)C4(C)C)[C@]3(C)[C@H](O)C[C@]12C: 0%

Series 2
Organism: Sarcocystis neurona
Observed: parasite growth
Tested at: 10 µM
Time: 96 h
Setting: first screen
Endpoint: inhibition
CCOC(=O)O[C@]1(C(=O)OCCl)CC[C@H]2[C@@H]3CCC4=CC(=O)C=C[C@]4(C)[C@H]3[C@@H](O)C[C@@]21C: 5%
O=C(c1ccc(OCCN2CCCCC2)cc1)c1c(-c2ccc(O)cc2)sc2cc(O)ccc12: 17%
CCCNC(=O)NS(=O)(=O)c1ccc(Cl)cc1: -7%
OCc1cccnc1: -5.2%
COC(=O)C1=C(C)NC(C)=C(C(=O)OCC(C)C)C1c1ccccc1[N+](=O)[O-] (stereo not drawn): 15.3%
CNS(=O)(=O)Cc1ccc2[nH]cc(CCN(C)C)c2c1: -0.647%
CC(=O)Nc1ccc(CC(=O)O)cc1: -4.6%
CN(C)[C@@H]1C(O)=C(C(=O)NCN2CCCC2)C(=O)[C@@]2(O)C(O)=C3C(=O)c4c(O)cccc4[C@@](C)(O)[C@H]3C[C@@H]12: -6.7%
NS(=O)(=O)Cc1noc2ccccc12: -10.7%
C[C@]12C[C@H](O)[C@H]3[C@@H](CCC4=CC(=O)CC[C@@]43C)[C@@H]1CC[C@@H]2C(=O)CO: -2%
Cc1cccc(C)c1NC(=O)C1CCCCN1C (stereo not drawn): -4.2%
Nc1nc(O)c2ncn(COC(CO)CO)c2n1: -12.3%

Series 3
Compound: COc1cc(C(=O)N2CCC(N3CCN(C)CC3)CC2)ccc1Nc1ncc2c(n1)N(C)c1ccccc1C(=O)N2C
Mode: inhibitor
Tested at: 5 µM
Reference: vehicle
Endpoint: log2 fold change
Epidermal growth factor receptor (EGFR, Homo sapiens, UniProt P00533, L858R/T790M); human cells: 0.146
Dual specificity protein kinase CLK3 (CLK3, Homo sapiens, UniProt P49761); human cells: -0.565
Serine/threonine-protein kinase DCLK2 (DCLK2, Homo sapiens, UniProt Q8N568); human cells: 0.154
Interleukin-1 receptor-associated kinase-like 2 (IRAK2, Homo sapiens, UniProt O43187); cell-based kinome screen; human cells: -0.179
human SPTBN1-FLT3 fusion; kinase–CDC37 interaction: 0.324
Cyclin-dependent kinase 15 (CDK15, Homo sapiens, UniProt Q96Q40); human cells; cell-based kinome screen: -0.057
kinase–CDC37 interaction; kinase–CDC37 binding; human cells; oncogenic MSN-ALK fusion: -0.35
Protein-tyrosine kinase 2-beta (PTK2B, Homo sapiens, UniProt Q14289); kinase activity; cell-based kinome screen: -0.009
Serine/threonine-protein kinase Kist (UHMK1, Homo sapiens, UniProt Q8TAS1); kinase-CDC37 interaction; human cells: -0.339

Series 4
SMILES: O=C(O)[C@H]1[C@H](Cn2nnc3ccccc3c2=O)CC[C@@H]1C(=O)c1ccc(OCCC2CCOCC2)cc1
Observed: ligand displacement
Tested at: 10 µM
Endpoint: inhibition
Alpha-2C adrenergic receptor (ADRA2C, Homo sapiens, UniProt P18825): 8.3%
Muscarinic acetylcholine receptor M2 (CHRM2, Homo sapiens, UniProt P08172): 1.41%
5-hydroxytryptamine receptor 7 (HTR7, Homo sapiens, UniProt P34969): -3.55%
Alpha-1B adrenergic receptor (ADRA1B, Homo sapiens, UniProt P35368): 7.47%
Sigma intracellular receptor 2 (TMEM97, Homo sapiens, UniProt Q5BJF2): 28.5%
Histamine H4 receptor (HRH4, Homo sapiens, UniProt Q9H3N8): 1.99%
Alpha-2A adrenergic receptor (ADRA2A, Homo sapiens, UniProt P08913): -5.14%
Beta-2 adrenergic receptor (ADRB2, Homo sapiens, UniProt P07550): 8.44%
Alpha-1D adrenergic receptor (ADRA1D, Homo sapiens, UniProt P25100): 0.59%
Sigma non-opioid intracellular receptor 1 (SIGMAR1, Homo sapiens, UniProt Q99720): 6.09%
Muscarinic acetylcholine receptor M5 (CHRM5, Homo sapiens, UniProt P08912): 4.3%
Histamine H1 receptor (HRH1, Homo sapiens, UniProt P35367): -8.85%
5-hydroxytryptamine receptor 6 (HTR6, Homo sapiens, UniProt P50406): 16.6%
D(4) dopamine receptor (DRD4, Homo sapiens, UniProt P21917): 12.5%

A few entries again (series 4):
Sigma intracellular receptor 2 (TMEM97, Homo sapiens, UniProt Q5BJF2): 28.5%
Histamine H4 receptor (HRH4, Homo sapiens, UniProt Q9H3N8): 1.99%
Alpha-2A adrenergic receptor (ADRA2A, Homo sapiens, UniProt P08913): -5.14%
Beta-2 adrenergic receptor (ADRB2, Homo sapiens, UniProt P07550): 8.44%
